Measured values pooled from the literature.
Compare with care: the assays were run in different laboratories. “And” joins repeats or separate records; there may be more than shown.
RPS6KA6 C-terminal kinase domain: Ribosomal protein S6 kinase alpha-6, C-terminal kinase domain (RPS6KA6, Homo sapiens, UniProt Q9UK32)
RPS6KA6: Ribosomal protein S6 kinase alpha-6 (RPS6KA6, Homo sapiens, UniProt Q9UK32)
RPS6KA6 N-terminal kinase domain: Ribosomal protein S6 kinase alpha-6, N-terminal kinase domain (RPS6KA6, Homo sapiens, UniProt Q9UK32)

For `CC(C)=CC1OC(C)(C)C2C=C3C(=O)C(Cl)=CC(O)C3C3C(O)C4OC4C(=O)C132` (stereo not shown), the remaining binding was 69% (RPS6KA6 C-terminal kinase domain; cell-free assay, competition with immobilised ligand; 10 µM).
`COCC12C(=O)NC3C4(C(OC)CC1O)C1CC5(O)C(OC)C(O)C(OC(C)=O)(C1C5OC(=O)c1ccccc1)C3(O)C(OC)C24` (stereo not shown) gave a remaining activity of 98% and 107% (RPS6KA6; kinase activity, inhibitor, ProQinase kinase profiling; 25 µM; reference: control).
With `COc1ccc(C(=O)/C=C/c2ccccc2-c2c[nH]c3ccc(C#N)cc23)c(O)c1` the inhibition was -11% (RPS6KA6; enzyme activity, inhibitor; 20 µM).
The remaining binding of `C=CC(=O)N1CCc2ccc(-n3c(=O)ccc4cnc5ccc(-c6cnn(C)c6)cc5c43)cc21` is reported as 92% (RPS6KA6 N-terminal kinase domain; KINOMEscan; 1 µM; reference: DMSO control).
For `Cc1cccc(O[C@H]2CCC[C@@H](C(C)CNCc3ccncc3)C2)c1` (relative stereo), the inhibition was -2% (RPS6KA6; kinase activity, kinome panel screening; 1 µM).
With `CCn1cc(C(=O)O)c(=O)c2c(N)c(F)c(NC3CCCCC3)cc21` the inhibition was -12.5% (RPS6KA6; kinase activity; 0.1 µM, together with: ATP at Km).
`COc1c(OCCCN2CCOCC2)ccc2c1N=C(NC(=O)c1cnc(N)nc1)N1CCN=C21` has a remaining activity of 114% (RPS6KA6; kinase activity, inhibitor; 1 µM; reference: untreated control).
For `COc1c(Cl)cccc1Nc1c(-c2ccncc2C#C[C@@]2(C)CCCN2C(=O)/C=C/CN(C)C)[nH]c2c1C(=O)NCC2`, the remaining binding was 88% (RPS6KA6 N-terminal kinase domain; binding, competition with immobilised ligand; 3 µM).
`COc1cc(Nc2nc(C)cc(-c3cnn4nc(OC)ccc34)n2)cc(C(F)(F)F)c1` gave a remaining binding of 70% (RPS6KA6 N-terminal kinase domain; binding, competition with immobilised ligand; 1 µM).
The remaining binding of `CNC1C[S+]2CC[S+]3CC[S+](C1)[Ru-4]321([N]=C=S)[n]2c3ccc(OC)cc3c3c4c(c5cc(F)c[n+]1c5c32)C(=O)NC4=O` (stereo not shown) is reported as 58% (RPS6KA6 C-terminal kinase domain; KinomeScan; 0.1 µM; reference: untreated).
`Cc1ccc(-c2c(/C=C(\C#N)C(=O)NC(C)C)n(CCCO)c3ncnc(N)c23)cc1` gave a remaining binding of 2% (RPS6KA6 C-terminal kinase domain; binding, competition with immobilised ligand; 1 µM).
`C=CC(=O)Nc1cccc(-c2cnc3[nH]cc(C(=O)NC(C)(C)C)c3n2)c1` gave an inhibition of 21% and 20% (RPS6KA6; kinase activity; 0.1 µM).
`CN1CC[C@@H](COc2cnc(C#N)cc2-c2ccn3nc(NC(=O)C4CC4)cc3c2)C1` has an inhibition of 11% (RPS6KA6; enzyme activity, inhibitor; 1 µM).
`Cc1nc2c(F)cc(-c3nc(Nc4ccc(CNC(=O)CCCCCCC(=O)NO)cc4)ncc3F)cc2n1C(C)C` has an inhibition of 68% (RPS6KA6; enzyme activity, inhibitor; 1 µM).
`C=CC(=O)N1CCCC(n2c(=O)c3ncccc3n(Cc3ccc(Oc4ccccc4)cc3)c2=O)C1` (stereo not shown) gave a remaining binding of 83% (RPS6KA6 N-terminal kinase domain; binding, competition with immobilised ligand; 1 µM).
For `NC(=O)[C@@H](O)C[C@H]1CCc2sc3ncnc(O[C@H]4CC[C@H](N5CCOCC5)CC4)c3c21`, the inhibition was 21% (RPS6KA6; enzyme activity, inhibitor; 10 µM).
For `CNC(=O)C1CCN(c2cc(C)c(F)cc2NC(=O)c2ccc(-c3cc(O)ccc3C)c(C)c2)CC1`, the remaining binding was 90% (RPS6KA6 C-terminal kinase domain; binding, competition with immobilised ligand; 1 µM).
For `Cc1cnc2nc1Nc1cccc(c1)COC/C=C/COCc1cc(ccc1OCCN1CCOCC1)N2`, the remaining signal was 100% (RPS6KA6 C-terminal kinase domain; cell-free assay; 0.1 µM).
With `COc1cc(Nc2nccc(-c3cnn4nc(OC)ccc34)n2)cc(C(F)(F)F)c1` the remaining binding was 94% (RPS6KA6 N-terminal kinase domain; binding, competition with immobilised ligand; 1 µM).
`CN1CCN(Cc2ccc(-c3ccc(CO[C@H]4CCC[C@@H]4NC(=O)c4cc(-c5cnn(C)c5)cnc4N)cc3)cc2)CC1` has an inhibition of -7% (RPS6KA6; enzyme activity, inhibitor; 0.1 µM).
`Nc1ncc2c(n1)-c1c([nH]c3ccc(C4=CCOCC4)cc13)CCC2` has a remaining binding of 76% (RPS6KA6 N-terminal kinase domain; binding, competition with immobilised ligand; 1 µM).
`CCN1CCN(Cc2ccc(C(=O)Nc3ccc(C)c(NCc4cnc5[nH]ccc5c4OC)c3)cc2C(F)(F)F)CC1` gave a remaining binding of 81% (RPS6KA6 N-terminal kinase domain; binding, competition with immobilised ligand; 1 µM).

A few entries again:
`COCC12C(=O)NC3C4(C(OC)CC1O)C1CC5(O)C(OC)C(O)C(OC(C)=O)(C1C5OC(=O)c1ccccc1)C3(O)C(OC)C24` (stereo not shown) gave a remaining activity of 98% and 107% (RPS6KA6; kinase activity, inhibitor, ProQinase kinase profiling; 25 µM; reference: control).
`Cc1nc2c(F)cc(-c3nc(Nc4ccc(CNC(=O)CCCCCCC(=O)NO)cc4)ncc3F)cc2n1C(C)C` has an inhibition of 68% (RPS6KA6; enzyme activity, inhibitor; 1 µM).
`Cc1ccc(-c2c(/C=C(\C#N)C(=O)NC(C)C)n(CCCO)c3ncnc(N)c23)cc1` gave a remaining binding of 2% (RPS6KA6 C-terminal kinase domain; binding, competition with immobilised ligand; 1 µM).
